Assay results gathered from unrelated publications.
CA9: Carbonic anhydrase 9 (CA9, Homo sapiens, UniProt Q16790)
CSNK1A1: Casein kinase I isoform alpha (CSNK1A1, Homo sapiens, UniProt P48729)
Sequence of UniProt P48729 (whole entry, looked up): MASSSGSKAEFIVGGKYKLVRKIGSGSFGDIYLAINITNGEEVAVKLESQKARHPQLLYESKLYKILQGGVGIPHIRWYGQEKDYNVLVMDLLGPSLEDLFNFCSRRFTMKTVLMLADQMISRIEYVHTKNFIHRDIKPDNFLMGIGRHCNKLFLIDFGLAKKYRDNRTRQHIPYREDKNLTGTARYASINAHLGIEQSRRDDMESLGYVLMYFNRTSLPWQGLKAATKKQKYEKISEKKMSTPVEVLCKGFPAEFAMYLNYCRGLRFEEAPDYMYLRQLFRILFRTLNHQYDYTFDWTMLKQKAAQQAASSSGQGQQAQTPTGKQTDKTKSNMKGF
MTNR1A: Melatonin receptor type 1A (MTNR1A, Homo sapiens, UniProt P48039)
Sequence of UniProt P48039 (whole entry, looked up): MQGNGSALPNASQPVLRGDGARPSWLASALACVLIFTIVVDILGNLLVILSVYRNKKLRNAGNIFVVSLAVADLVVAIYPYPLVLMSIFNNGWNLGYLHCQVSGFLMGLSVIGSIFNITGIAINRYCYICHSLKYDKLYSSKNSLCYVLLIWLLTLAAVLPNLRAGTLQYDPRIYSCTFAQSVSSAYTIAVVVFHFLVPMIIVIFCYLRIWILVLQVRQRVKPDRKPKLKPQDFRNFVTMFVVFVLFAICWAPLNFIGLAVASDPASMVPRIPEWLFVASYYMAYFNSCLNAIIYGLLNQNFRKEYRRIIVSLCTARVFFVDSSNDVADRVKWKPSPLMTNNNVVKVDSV
CSNK1D: Casein kinase I isoform delta (CSNK1D, Homo sapiens, UniProt P48730)
Sequence of UniProt P48730 (whole entry, looked up): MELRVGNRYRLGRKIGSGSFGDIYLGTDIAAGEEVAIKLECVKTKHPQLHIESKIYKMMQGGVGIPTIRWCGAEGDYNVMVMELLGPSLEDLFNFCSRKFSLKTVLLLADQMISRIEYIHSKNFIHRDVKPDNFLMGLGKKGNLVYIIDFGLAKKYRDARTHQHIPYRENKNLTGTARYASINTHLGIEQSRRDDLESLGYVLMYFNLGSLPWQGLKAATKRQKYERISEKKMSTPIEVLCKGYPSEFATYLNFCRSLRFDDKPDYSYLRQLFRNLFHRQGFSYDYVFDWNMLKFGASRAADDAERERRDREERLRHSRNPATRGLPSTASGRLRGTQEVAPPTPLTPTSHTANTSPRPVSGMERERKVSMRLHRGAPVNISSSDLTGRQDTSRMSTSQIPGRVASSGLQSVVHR
Sequence of UniProt P0DMS8 (whole entry, unmodified, looked up): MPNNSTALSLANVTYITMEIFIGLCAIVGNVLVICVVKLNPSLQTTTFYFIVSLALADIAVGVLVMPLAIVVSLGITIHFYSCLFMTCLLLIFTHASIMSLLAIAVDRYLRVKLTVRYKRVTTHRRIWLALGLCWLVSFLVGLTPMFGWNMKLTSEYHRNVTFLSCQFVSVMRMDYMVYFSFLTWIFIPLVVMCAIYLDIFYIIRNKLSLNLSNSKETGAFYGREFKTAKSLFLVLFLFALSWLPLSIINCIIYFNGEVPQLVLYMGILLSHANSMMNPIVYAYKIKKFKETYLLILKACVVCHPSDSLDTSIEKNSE

| Compound | target | test | measurement | result |
| --- | --- | --- | --- | --- |
| Cc1ccc(NC(=O)COC(=O)c2ccc(O)c(-c3ccccc3)c2)cc1S(N)(=O)=O | CA9 | enzyme activity, inhibitor | IC50 | 0.279 µM |
| CNc1cncc(Cl)n1 | CSNK1A1 | binding, SPR | Kd | > 50 µM |
| CN(C)c1ncnc2c1ncn2[C@@H]1O[C@H](CO)[C@@H](O)[C@H]1O | Adenosine receptor A3 (ADORA3, Homo sapiens, UniProt P0DMS8, L264N) | G protein activation, agonist | EC50 | 98 µM |
| CC(OC(=O)CCC(=O)c1ccc(N)cc1)C(=O)Nc1ccc(S(N)(=O)=O)cc1 (stereo not shown) | CA9 | enzyme activity, inhibitor | IC50 | 0.0151 µM |
| COc1ccc(F)cc1CNc1cccc2c1oc(=O)n2C | MTNR1A | cAMP, agonist, luciferase | EC50 | 0.621 µM |
| Cc1cc(Nc2ccc(Cl)cc2)c2ccccc2n1 | CSNK1D | binding, SPR | Kd | > 50 µM |
| Cc1ccc(Nc2ccccc2C(=O)OCC(=O)Nc2ccc(S(N)(=O)=O)cc2)cc1 | CA9 | enzyme activity, inhibitor | IC50 | 0.077 µM |
| CC(=O)Nc1sc2c(c1-c1nc3ccccc3s1)CCN(C(C)C)C2 | CSNK1D | binding, SPR | Kd | > 50 µM |
| COC(=O)c1cccc(N(C)CCc2cnccn2)n1 | MTNR1A | cAMP, agonist, luciferase | EC50 | 1.44 µM |
| CN(CC(=O)Nc1ccc(N2CCOCC2)cc1)C(=O)c1ccc(S(N)(=O)=O)c(Cl)c1 | CA9 | enzyme activity, inhibitor | IC50 | 0.08 µM |
| COC(=O)c1cccc(N(C)Cc2ccncc2)n1 | MTNR1A | cAMP, agonist, luciferase | EC50 | 0.00788 µM |
| N#Cc1cc(I)c(O)c([N+](=O)[O-])c1 | CSNK1A1 | binding, SPR | Kd | > 50 µM |
| COc1ccc(CN(C(=O)C2CC(F)(F)C2)c2ccncc2)cc1 | MTNR1A | cAMP, agonist, luciferase | EC50 | 0.0288 µM |
| N#Cc1cncc2c1NCCC2 | CSNK1D | binding, SPR | Kd | > 50 µM |
| NS(=O)(=O)c1ccc(NC(=O)N2CCN(Cc3ccc(-c4cccc(Cl)c4)s3)CC2)cc1 | CA9 | enzyme activity, inhibitor | IC50 | 0.053 µM |
| CN(CCc1cnccn1)c1ccc(Br)c(C(F)(F)F)n1 | MTNR1A | cAMP, agonist, luciferase | EC50 | 0.475 µM |
| NS(=O)(=O)c1ccc(F)c(CNc2c(S(N)(=O)=O)ccc3ccccc23)c1 | CA9 | enzyme activity, inhibitor | IC50 | 0.05 µM |
| CN(Cc1cccc(O)c1)C(=O)c1cccc(OCC(F)(F)F)c1 | MTNR1A | cAMP, agonist, luciferase | EC50 | 0.0438 µM |
| Oc1ccc(C2CNCCN2)cc1 (stereo not shown) | CSNK1A1 | binding, SPR | Kd | > 50 µM |

Some of these lines once more:
| Compound | target | test | measurement | result |
| --- | --- | --- | --- | --- |
| COc1ccc(CN(C(=O)C2CC(F)(F)C2)c2ccncc2)cc1 | MTNR1A | cAMP, agonist, luciferase | EC50 | 0.0288 µM |
| N#Cc1cncc2c1NCCC2 | CSNK1D | binding, SPR | Kd | > 50 µM |
